Measurements collected from several papers.
Protocols differ between the studies behind these lines. ± gives the spread as reported.

C=CC(=O)Nc1cc(Nc2nccc(-n3ccc4nc(OC)ccc43)n2)c(OC)cc1N(C)CCN(C)C  brain tumour to tumour-free brain ratio (BALB/c nude mouse, H1975 intracranial; oral, 60 mg/kg, 1 h): 5.46
N#CCc1cccc(Cl)c1-c1ccc2[nH][11c](=O)[nH]c2c1  brain uptake (mouse; 30 min; baseline: no inhibitor): 0.71 ± 0.08 %ID/g
Cc1cc2c(c(=O)o1)C=C1CCC(C(C)CNCc3ccc(O)cc3)CC1O2 (stereo not shown)  brain concentration (HPLC-MS; mouse; iv, 25 mg/kg, 5 min): 48.8 µM
O=S(=O)(N[C@H]1CCC[C@@H](N2c3ccccc3CCc3ccccc32)[C@@H]1O)c1ccc(OC(F)(F)F)cc1  brain exposure (mouse, brain; oral, 100 mg/kg twice daily): ~8 µM
[11CH3]N1CCCC[C@H]1[C@@H](NC(=O)c1nccc(C(F)(F)F)c1Cl)c1cccc(-c2cn[nH]c2)c1  brain uptake (male ddY mouse, brain; iv, 15 min): 0.19 % injected dose/g
CCC1CC2C(C)=CC3C(=O)CCCC3C=CC(C)=CC2C(=O)O1 (stereo not shown)  brain concentration (ICR mouse (male), brain; intravenous, 2 mg/kg, 30 min): 10.8 ± 3.6 ng/g
O=C1CCc2ccc(NS(=O)(=O)c3cccc(Oc4ccccc4)c3)cc2N1  brain Cmax ratio (C57BL/6J mouse, brain; 3 mg/kg; baseline: oral over subcutaneous): 84%
Cc1ccc(NC(=O)N2CCCN3CCC(c4ccc(C#CC5CCCC5O)cc4)C3C2)cc1 (stereo not shown)  brain tissue binding (CD-1 mouse, brain homogenate; dose not given): 99.1%
Cc1c(C(=O)Nc2ccn(C)n2)ncn1Cc1cccc(C(F)(F)F)c1  brain concentration (C57BL/6 mouse, non-transgenic, brain; drinking water, 15 mg/kg daily, 10 days): 59.3 ± 6 ng/g
CCOP(=O)(CC(=O)Nc1ccc(S(=O)(=O)N(CC(N)=O)c2ccc(N(CC(N)=O)S(=O)(=O)c3ccc(OC)cc3)c3ccccc23)cc1)OCC  brain concentration (male mouse, Aβ1-42-injected AD model, brain; oral, 40 mg/kg, 6 h): 1.58 ± 0.276 ng/mL
NS(=O)(=O)NCC(F)(F)c1ccccc1F  brain to plasma ratio (mouse; oral, 5 mg/kg, at Cmax): 2.4
N#Cc1cc(C(=O)OCC[18F])c(C(F)(F)F)nc1N1CCN(C(=O)Cc2ccccc2)CC1  brain SUVmean (dynamic PET; healthy C57BL/6 mouse; intravenous, 11.1 MBq): 0.69 ± 0.11
C[C@H](CN(C)Cc1ccccc1)NC(=O)c1ccc(-c2noc(C(F)(F)[18F])n2)cc1  brain uptake (microPET; mouse; 30 min after injection): 3.06 ± 0.19 %ID/cc

Some of these lines once more:
NS(=O)(=O)NCC(F)(F)c1ccccc1F  brain to plasma ratio (mouse; oral, 5 mg/kg, at Cmax): 2.4
